Experimental data collected from several papers.
Each numbered part is a random draw from the data of one study; scales do not carry over between parts.

Study 1 — method: aptamer microarray, sandwich; form: DNA with 2'F-ANA; medium: in vitro; concentration: 200 nM; added: Cy3 exosite-II aptamer, 400 nM; direction: higher = stronger binding
Target: Prothrombin, mature alpha-thrombin (F2, Homo sapiens, UniProt P00734)
Setting: whole 15-mer aptamer, many near background
Strand | mean fluorescence intensity [a.u.]
GGTTGGTGTGGTTGG (2'F-ANA at 1 3 4 7 10 11 12 13 14 15) | 51.5
GGTTGGTGTGGTTGG (2'F-ANA at 6 12 13 14) | 200
GGTTGGTGTGGTTGG (2'F-ANA at 4 6 7 10 14 15) | 55.6

Study 2 — method: universal PBM; form: double-stranded DNA, one strand shown; medium: in vitro; concentration: not given; direction: higher = stronger binding
Target: Sal-like protein 4, full length isoform B (SALL4, Homo sapiens, UniProt Q9UJQ4-2, residues 1-616)
Setting: 8-mer, flanks averaged, mean of replicates
Strand | E-score
CGTGACGA | -0.0851
ACAGATGC | 0.103
CTACCGAA | -0.0244
GCGCACTA | -0.128

Further values, each from its own experiment
Substance | target | test | system | setting | how to read | measurement | result
CCTTAGGA | Histone acetyltransferase KAT6A, winged helix 2, GST fusion (KAT6A, Homo sapiens, UniProt Q92794, residues 85-181) | protein binding microarray | double-stranded DNA, one strand shown, in vitro | not given, 8-mer, flanks averaged, mean of 2 arrays, mostly near background | baseline: not given, higher = stronger binding | E-score | 0.0207
PhoQ, residues 284 288 289 292 302 303 NLMGRA | PhoP, residues 12 14 15 18 19 FWNTL (Escherichia coli, UniProt P23836) | Sort-seq, measured: YFP reporter | E. coli | PhoQ-PhoP variant library, added: 10 µM Mg2+ | baseline: high Mg2+ state, higher = stronger signaling | fold induction | 19.9
AACATAAG | Histone acetyltransferase KAT6A, winged helix 1, GST fusion (KAT6A, Homo sapiens, UniProt Q92794, residues 1-85) | protein binding microarray | double-stranded DNA, one strand shown, in vitro | not given, 8-mer, flanks averaged, mean of 2 arrays, mostly near background | baseline: not given, higher = stronger binding | E-score | -0.0117
